Measured values collected from several papers.
Parts stem from different laboratories: compare values within a part only.

Study 1
Target: RNA binding protein fox-1 homolog 2, RRM domain, GST-SBP tag (RBFOX2, Homo sapiens, UniProt O43251-10, residues 100-194)
Technique: RNA Bind-n-Seq
Form: RNA
Matrix: in vitro
Tested at: 365 nM
Setting: natural RNA segment, single round, ends assumed
Baseline: no-protein control
Reading: higher = stronger binding
Endpoint: RBNS enrichment (R)
All sequences stand within: GGGAGUUCUACAGUCCGACGAUC … UGGAAUUCUCGGGUGCCAA
Residues (chain): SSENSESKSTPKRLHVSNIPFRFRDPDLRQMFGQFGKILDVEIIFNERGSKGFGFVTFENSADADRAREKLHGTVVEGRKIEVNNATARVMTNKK
Strand = CCCUCCUAUUUCUGCCUCCCUGCUGGGAGCUUUCCUGUUCCCUGGUGUUCCACGAAGGAGGCUCUUCUCAGUCUCUGGGCUCUCCUUUAGAGUUAAGGUCUUAAAAUGUA; result = 0.439
Strand = AACAAUGGUUUCAGGAGAACUGUUUGUUUCUGUGUGAAUUGAGUUGACACACUCCAGUCCUGAGCUGCUCUGCUGCCGCUUCCCUCAGUUAACCUUCUCACCGAAACCUU; result = 0.385
Strand = ACCAGCACUGCCGUGGGUCUCCUCACAUGGUCAAACGGAACACGGGGGGUUAGGCCUGUGUGCCCCCUCAACCCAUAACUGCUGUCAAACAAAGCAAACCUUGUAAAGUG; result = 0.768
Strand = CUGAAGCCCUCUGUUGAACAACAGGGCCAGAUCCUAAAGCUCUUUCAGGGAGCUCUUCUCUGGGGCUGGAACAGUUGAUUAUGCAACCCCAUUGUGUGGAGAUUGGAUCA; result = 0.397
Strand = GCAGACGUCAGCUCAGCCCCGUCCUGGGCACAGACACUACACAAGGAGACGCUGGAAGUUAAGCAAUACUUUAAUACUGUAAUAUGUUUGUUUUCUUUUUCUUUCUUUUU; result = 0.362
Strand = CGAGUGUUUGAGGAAGACCCAGGCUCAGACCCACAGCAGCCCACCUUCUCUCUGACAGCCCAUCUUCGUCAGGCCCAUUCCCAGGAUGUCAACUGUGUGGCUUGGAAUCC; result = 0.672
Strand = AUCAAGAAACUGAAUGGAGCUCCACACCUCUAGAUCUCAAUGAUUCGGUUGGCUUCUCAGUGGAACCCAACUGAAGUUGUCUAAUUGCCUCUUCUCAGAGUUCAGGAAAA; result = 0.318
Strand = CAAGUUUGUCAAUGAGGCUAUAGCCUCAAGAAGAUGCCAUCUGCCUGAAUGUUGACAUGCCAGCGGGCGUGUGACCCUUCAUUUUCCCUUUCCCUUCCUUUGGACAGUGU; result = 0.743
Strand = UCCACAGGAGAUAGGCAAGAAGAUUGGAGCAGCUUUCUCACAGGUCUGCAAUUUGGAUUUUCUCCAAGUACAUCAUGACACCUUCGUCCUCCUGAACUGGAGAGGGGAAG; result = 0.253
Strand = CCUCAUUGGUCUUCCUCCCACCUGUCCCUUUUCCGGGAAGUUGUGGAAUUGUUGGAAGAAGAGUUUGCAGAAGGUUAGGAAUGGGUAGAUAGCUAAGUCCUAAUCUAUGG; result = 0.459
Strand = CGCGGGCAGCCAGGCCCAGCCCCCGCCCGAGCUCAGGCUGCCCCUCUCCUUCCCCGGCUCGCAGGAGAGCAGAGCAGAGAACUGUGGGGAACGCUGUGCUGUUUGUAUUU; result = 0.578
Strand = UGCUCCAGAAAAUUUUCUAUUCUGUAAGUCUAAGGGUAAAACUUCAAGUAUUAAGAUAAUUUGUACAUGUAGAGAAAAAAAUGACUUUUUCAUAAUAUACAGGGGCAGCU; result = 0.589

Study 2
Target: Sal-like protein 4, full length isoform A (SALL4, Homo sapiens, UniProt Q9UJQ4, residues 1-1053)
Sequence of UniProt Q9UJQ4 (whole entry, looked up): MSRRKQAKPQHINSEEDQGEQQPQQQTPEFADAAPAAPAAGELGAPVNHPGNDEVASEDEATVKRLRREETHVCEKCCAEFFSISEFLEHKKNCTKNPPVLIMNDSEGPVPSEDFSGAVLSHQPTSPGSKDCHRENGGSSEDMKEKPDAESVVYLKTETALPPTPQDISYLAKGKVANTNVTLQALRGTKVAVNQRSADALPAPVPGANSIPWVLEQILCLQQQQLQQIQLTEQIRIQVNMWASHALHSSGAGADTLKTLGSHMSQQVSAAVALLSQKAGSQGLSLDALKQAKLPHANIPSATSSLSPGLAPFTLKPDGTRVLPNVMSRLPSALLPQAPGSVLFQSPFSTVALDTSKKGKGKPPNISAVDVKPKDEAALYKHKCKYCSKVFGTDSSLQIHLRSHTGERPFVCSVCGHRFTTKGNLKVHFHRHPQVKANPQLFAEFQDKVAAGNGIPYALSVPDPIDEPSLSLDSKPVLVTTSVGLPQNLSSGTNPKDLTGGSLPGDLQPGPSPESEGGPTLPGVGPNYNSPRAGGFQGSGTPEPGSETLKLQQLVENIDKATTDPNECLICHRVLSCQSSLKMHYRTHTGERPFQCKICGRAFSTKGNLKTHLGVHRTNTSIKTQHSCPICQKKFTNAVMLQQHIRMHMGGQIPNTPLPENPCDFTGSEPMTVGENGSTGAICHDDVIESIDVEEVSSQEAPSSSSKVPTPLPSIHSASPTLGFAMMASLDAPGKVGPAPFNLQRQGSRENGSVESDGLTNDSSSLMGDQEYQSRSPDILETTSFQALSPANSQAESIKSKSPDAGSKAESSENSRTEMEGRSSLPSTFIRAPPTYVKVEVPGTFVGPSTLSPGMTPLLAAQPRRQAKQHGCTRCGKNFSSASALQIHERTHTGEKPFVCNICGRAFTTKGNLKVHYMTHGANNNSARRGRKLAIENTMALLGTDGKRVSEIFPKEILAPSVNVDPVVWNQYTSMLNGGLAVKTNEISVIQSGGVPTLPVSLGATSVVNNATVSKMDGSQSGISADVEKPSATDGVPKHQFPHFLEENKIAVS
Technique: universal PBM
Form: double-stranded DNA, one strand shown
Matrix: in vitro
Tested at: 600 nM
Setting: 8-mer, flanks averaged, mean of replicates
Reading: higher = stronger binding
Endpoint: E-score
Strand = CATTCGTA; result = 0.193
Strand = AACCCCAA; result = -0.0182
Strand = CGGTTCGC; result = -0.245
Strand = GAGCTAGC; result = -0.158
Strand = CGAACTAA; result = 0.0597
Strand = GCATACAC; result = 0.0688
Strand = GTAACCAC; result = -0.116
Strand = GGGAACAC; result = -0.229
Strand = CGGTATTC; result = -0.0385
Strand = AGTGAAGA; result = 0.0885
Strand = GATGTGCA; result = 0.0449
Strand = CCGTCGTC; result = -0.348
Strand = ACATGAAA; result = 0.181
Strand = CGATCATC; result = 0.0828
Strand = CGGCCTAC; result = -0.196
Strand = AAAGAACA; result = 0.22
Strand = CCAACGGC; result = -0.331
Strand = ACCCAGCA; result = -0.15
Strand = AAATCCTT; result = 0.257
Strand = CGCTGGTA; result = -0.0563

Study 3
Target: RING finger protein unkempt homolog, zinc fingers 1-6, GST-SBP tag (UNK, Homo sapiens, UniProt Q9C0B0, residues 30-357)
Technique: RNA Bind-n-Seq
Form: RNA
Matrix: in vitro
Tested at: not given
Setting: RNA with constant flanks, human-mouse chimeric sites, ends assumed
Baseline: input RNA pool
Reading: higher = stronger binding
Endpoint: bound/input enrichment
All sequences stand within: GGGAGUUCUACAGUCCGACGAUC … CAACAGAGGAUUGAGCAUCA
Target sequence (chain): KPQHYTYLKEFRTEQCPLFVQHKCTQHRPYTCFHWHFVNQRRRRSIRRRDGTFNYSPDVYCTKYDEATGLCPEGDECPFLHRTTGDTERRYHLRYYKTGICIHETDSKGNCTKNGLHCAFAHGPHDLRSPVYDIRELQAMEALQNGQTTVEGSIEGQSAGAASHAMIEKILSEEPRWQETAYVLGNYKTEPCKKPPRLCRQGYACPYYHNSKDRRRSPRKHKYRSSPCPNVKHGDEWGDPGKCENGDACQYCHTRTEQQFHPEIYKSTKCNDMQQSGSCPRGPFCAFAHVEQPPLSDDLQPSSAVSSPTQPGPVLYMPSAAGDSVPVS
Strand = GGGGAGAAACCUUACGAGUGUGUGCAGUGUGGGAAAUCCUACAGUCAGAGCUCAAACCUUUUUAGACAUCAGAGACGACACAAUGCAGAAAAACUUUUGAAUGUUGUGAAAGUUUAAGAA; result = 0.23 ratio
Strand = UCGGAUGAGGUGCUGGGUCACUUUUCAUAUCCAGAUCCUUCACAGUGGACAGAUGAAGAACUGGGAAUCCCUCCUGAUGACGAGGACUGACACUGUAGACUCAGCCUACGAGUAGGAGCA; result = 0.37 ratio
Strand = UUGAAAACUGAUUCAAGCAAGUUUGAAUAUCACAAUGUUAGCUUUCUAAUUCCAUAAAAGUACUUGGUACAGUUUCUUUAUAAUCUGACAUCACCCCAGCGCCAUUUGUAAAGAGCAACU; result = 1.22 ratio
Strand = GCUCUUGGGAAUGUAAUCAGCGCCUUGGGGGACAAGAGCAAGAGGGCCACACAUGUCCCUUACAGAGACUCUAAGCUGACAAGACUCUUGCAGGAUUCCCUUGGGGGUAACAGCCAAACC; result = 0.0983 ratio
Strand = CAGGGCAUCAUCUCUCGUGCUGUUAGACACCUGUUCAAGAGUAUUGAUGAGAAAAAGCACAUAGCAAUUAAAAACGGGCUGCCCCCUCCAGAUUUUAAAGUGAAUGCCCAGUUCCUAGAG; result = 2.1 ratio
Strand = GGGACUGAUUCAUUCCAAGGACAGGCCACCCCAUUUGAUGCCUGGACUGAUGACAGUAUGUUAGGGCCUAGUCAAAAUGUUGAAGCUGAGUCAAUUCAGGAUGCCAUGAGUAUGGAAGAG; result = 0.522 ratio
Strand = CUGGGUAUCAUCUCUCGUGCUGUUAGACACCUGUUCAAGAGUAUUGAUGAGAAAAAGACCUCAGCGAUUAAAAAUGGGCUGCCCCCUCCUGAAUUCAAAGUGAAUGCCCAGUUCCUAGAG; result = 0.277 ratio
Strand = UCCCUGUUGCUGAAUAAAUGGCUUGUAAGAACUGUCCUCCAAGCUGUAACCCAUGCUGUUAUUAUAGUUGCUGCAAAAUGUUCUUCCUGAUAUUGAUUUUAUUUGUUAACUGAAGGUCUC; result = 0.405 ratio
Strand = UAAGUCCAUUUGUAAGCCUUCGCUCAUAAAGUUUUAAAUUCUGGACCAAUUGUGUUUGUUUCCUGAUUAUUGUAUCCAAUACUUUGCCUAGUAUGUAACUCACUCUUACUGAUAAUAAAA; result = 0.68 ratio
Strand = AAAGUGGACUAUGGCGAAUACAUGGAUAAAAACAAUGUGAGGCGGCAAGCAACAACAAUCAUAGCUGAUAACAUUAUAUUUCUGAGUGACCAGACAAAAGAGAAGGAAUAGAACGGAUGA; result = 1.89 ratio
Strand = AACAGAUUGUCUUUAAGGUCAACGUAGGAGAAUGCUGGGGUGAUCAUUGUUGCCCAUGUGCCUUCUGACUGAGCUUUAAUGCUGUUCCAUGUUACAUUGAUGUUCUUCUCCAGAAUUGUU; result = 0.0969 ratio

Study 4
Organism: Saccharomyces cerevisiae
Observed: growth after mating arrest
Technique: competitive growth deep sequencing
Form: peptide
Setting: strain without Cln2 fusion
Reading: direction not given
Endpoint: enrichment score
Sequence = ARKRLELGNLGNPQ; result = -0.413
Sequence = RRVLCFDS; result = -0.35
Sequence = RKLDLEGIGR; result = 0.48
Sequence = LRRQLSFSED; result = 0.263
Sequence = LRRKLFLDGNGSIS; result = -0.418
Sequence = GFGFLLFICKLTF; result = -0.473
Sequence = PPKPLKKLRFDIEGSD; result = -0.159
Sequence = RKLHFEDEVT; result = 0.261
Sequence = KVKRRLDLDIDGLQKE; result = 0.293

Study 5
Target: Prothrombin, mature alpha-thrombin (F2, Homo sapiens, UniProt P00734)
Technique: aptamer microarray, sandwich
Form: DNA with 2'F-ANA
Matrix: in vitro
Tested at: 200 nM
Setting: whole 15-mer aptamer, many near background
With: Cy3 exosite-II aptamer, 400 nM
Reading: higher = stronger binding
Endpoint: mean fluorescence intensity
Strand: GGTTGGTGTGGTTGG
Modification = 2'F-ANA at 3 4 5 7 8 9 12 13 14; result = 53 a.u.
Modification = 2'F-ANA at 1 2 4 5 6 7 13 15; result = 62.5 a.u.
Modification = 2'F-ANA at 2 3 4 7 9 12 13 15; result = 601 a.u.
Modification = 2'F-ANA at 1 3 6 8 12; result = 589 a.u.
Modification = 2'F-ANA at 1 2 3 5 6 7 9 10 11 12 13 15; result = 51.7 a.u.
Modification = 2'F-ANA at 1 2 3 4 6 11 12 13 14 15; result = 66.3 a.u.
Modification = 2'F-ANA at 3 4 5 11 14; result = 54.9 a.u.
Modification = 2'F-ANA at 2 3 4 6 8 10 12 14; result = 161 a.u.
Modification = 2'F-ANA at 1 2 4 6 9 10 13 15; result = 48.7 a.u.
Modification = 2'F-ANA at 1 2 7 9 12 13 14 15; result = 79.3 a.u.
Modification = 2'F-ANA at 1 3 10 11 13 14; result = 120 a.u.
Modification = 2'F-ANA at 1 2 5 12 13; result = 107 a.u.
Modification = 2'F-ANA at 3 4 5 11 12 15; result = 150 a.u.
Modification = 2'F-ANA at 1 10 11 15; result = 52.9 a.u.
Modification = 2'F-ANA at 1 3 4 5 7 9 12 13 14 15; result = 45.3 a.u.
Modification = 2'F-ANA at 1 2 7 8 11 12 15; result = 349 a.u.
Modification = 2'F-ANA at 2 3 5 8 9 11 13 14 15; result = 55.2 a.u.
Modification = 2'F-ANA at 1 3 6 9 11 12 13 14; result = 98 a.u.
Modification = 2'F-ANA at 2 8 9 10 12 13 14 15; result = 81 a.u.
Modification = 2'F-ANA at 1 2 3 6 8 12 15; result = 427 a.u.
Modification = 2'F-ANA at 8 13; result = 548 a.u.
Modification = 2'F-ANA at 1 4 5 6 7 13; result = 48.2 a.u.
Modification = 2'F-ANA at 3 4 6 8 10 14; result = 191 a.u.
Modification = 2'F-ANA at 4 6 7 9 10 14; result = 73.8 a.u.
Modification = 2'F-ANA at 2 8; result = 519 a.u.

A few entries again (study 3):
Strand = GGGGAGAAACCUUACGAGUGUGUGCAGUGUGGGAAAUCCUACAGUCAGAGCUCAAACCUUUUUAGACAUCAGAGACGACACAAUGCAGAAAAACUUUUGAAUGUUGUGAAAGUUUAAGAA; result = 0.23 ratio
Strand = UCGGAUGAGGUGCUGGGUCACUUUUCAUAUCCAGAUCCUUCACAGUGGACAGAUGAAGAACUGGGAAUCCCUCCUGAUGACGAGGACUGACACUGUAGACUCAGCCUACGAGUAGGAGCA; result = 0.37 ratio
Strand = UUGAAAACUGAUUCAAGCAAGUUUGAAUAUCACAAUGUUAGCUUUCUAAUUCCAUAAAAGUACUUGGUACAGUUUCUUUAUAAUCUGACAUCACCCCAGCGCCAUUUGUAAAGAGCAACU; result = 1.22 ratio
Strand = GCUCUUGGGAAUGUAAUCAGCGCCUUGGGGGACAAGAGCAAGAGGGCCACACAUGUCCCUUACAGAGACUCUAAGCUGACAAGACUCUUGCAGGAUUCCCUUGGGGGUAACAGCCAAACC; result = 0.0983 ratio
Strand = CAGGGCAUCAUCUCUCGUGCUGUUAGACACCUGUUCAAGAGUAUUGAUGAGAAAAAGCACAUAGCAAUUAAAAACGGGCUGCCCCCUCCAGAUUUUAAAGUGAAUGCCCAGUUCCUAGAG; result = 2.1 ratio
Strand = GGGACUGAUUCAUUCCAAGGACAGGCCACCCCAUUUGAUGCCUGGACUGAUGACAGUAUGUUAGGGCCUAGUCAAAAUGUUGAAGCUGAGUCAAUUCAGGAUGCCAUGAGUAUGGAAGAG; result = 0.522 ratio
